Measured values from different studies.
Protocols differ between the studies behind these lines. Numbers after ± are the reported error.

Structure (SMILES)	test	system	conditions	Tmax
C[C@H](N)C(=O)N1C[C@H](CCCB(O)O)[C@](N)(C(=O)O)C1		human, moderate renal impairment, plasma	oral, 50 mg, cycle 1 day 1, together with: pembrolizumab	5.9 h
C=C(C)[C@@H]1CC[C@]2(NCCN3CCS(=O)(=O)CC3)CC[C@]3(C)[C@H](CC[C@@H]4[C@@]5(C)CC=C(C6=CC[C@@](CF)(C(=O)O)CC6)C(C)(C)[C@@H]5CC[C@]43C)[C@@H]12		human, HIV-1 treatment-naive, plasma	oral, 10 mg once daily, day 8	4.02 h
C[C@]12CCC(=O)C=C1[C@@H]1C[C@@H]1[C@H]1[C@@H]3[C@@H]4C[C@@H]4[C@@]4(CCC(=O)O4)[C@@]3(C)CC[C@@H]12		human female	day 1, oral contraceptive alone, median	3 h
NC(=O)NO		human sickle cell anaemia, whole blood		0.833 to 1.17 h
O=C(O)CNC(=O)c1c(O)c2ccccc2n(OCC2CC2)c1=O		human	oral, 150 mg single dose, fasted	2 h
Nc1nc2[nH]cc(CCc3ccc(C(=O)N[C@@H](CCC(=O)O)C(=O)O)cc3)c2c(=O)[nH]1		human cancer patients, plasma	intravenous, dose not given, cycle 1 day 1, chemotherapy alone	0.18 h
CC(C)NC[C@@H](C(=O)N1CCN(c2ncnc3c2[C@H](C)C[C@H]3O)CC1)c1ccc(Cl)cc1		human, Severe hepatic function, plasma	oral, 100 mg single dose, NCI classification, median	1 h
CC(C)n1nc(-c2ccc3oc(N)nc3c2)c2c(N)ncnc21		human, plasma	oral, 20 mg weekly, cycle 1 day 1, median, dose escalation	0.5 h
CCOc1ccc(Cc2cc([C@]34OC[C@](CO)(O3)[C@@H](O)[C@H](O)[C@H]4O)ccc2Cl)cc1		human, fed, plasma	oral, dose not given, range of medians, monotherapy and fixed-dose combinations	2 to 2.5 h
Cn1cnc2c(F)c(Nc3ccc(Br)cc3Cl)c(C(=O)NOCCO)cc21		human cancer patients, plasma	oral, 75 mg, cycle 1 day 1	1.64 ± 0.73 h
NC(=O)N1CCC(CC(=O)N2CCC([C@H]3c4ncc(Br)cc4CCc4cc(Cl)cc(Br)c43)CC2)CC1		human, plasma	oral, 150 mg twice daily, cycle 1 day 15, multiple dose, median, together with: gemcitabine 750 mg/m2	5.5 h
COc1ccc2nc([S@@+]([O-])Cc3ncc(C)c(OC)c3C)[nH]c2c1	HPLC	human CYP2C19 intermediate metabolizers, plasma	oral, 40 mg/day, day 1, pantoprazole	7.25 ± 6.92 h
Cc1nc(Nc2ncc(C(=O)Nc3c(C)cccc3Cl)s2)cc(N2CCN(CCO)CC2)n1		human, plasma	oral, 100 mg, median, range 1.0 to 16 h, together with: omeprazole	1.9 h
COC(=O)c1ccc2c(c1)NC(=O)/C2=C(\Nc1ccc(N(C)C(=O)CN2CCN(C)CC2)cc1)c1ccccc1		human, moderate liver impairment, plasma	oral, 150 mg twice daily, steady state	4.08 h
CCc1cc2c(cc1N1CCC(N3CCOCC3)CC1)C(C)(C)c1[nH]c3cc(C#N)ccc3c1C2=O		human, hepatic impairment and healthy, plasma	oral, 300 mg single dose, median across groups	~6 h
Cc1ccc(NC(=O)c2ccc(CN3CCN(C)CC3)cc2)cc1Nc1nccc(-c2cncc(-c3oncc3C)c2)n1		older healthy human adults, plasma	oral, 12.5 mg single dose, fed, mean	7.33 h
C#C[C@]1(O)CC[C@H]2[C@@H]3CCc4cc(O)ccc4[C@H]3CC[C@@]21C		human female, plasma	oral, 35 µg, day 1, median, together with: norethindrone 1 mg	1.5 h
CC(C)(C)OC[C@@H]1C(=O)NCCN1C(=O)C[C@H](N)Cc1cc(F)c(F)cc1F		human, male, plasma	oral, single dose, fixed-dose combination with metformin, fasted, median	5 h
COCCCCn1c(C(=O)N(CC(C)C)[C@@H]2CNC[C@H](C(=O)N3CCOCC3)C2)nc2ccccc21		non-elderly human, plasma	oral, 160 mg once daily, day 7	1.5 h

Structure (SMILES)	test	system	conditions	Tmax
CNc1nc(Nc2ccc(-n3cnc(C)n3)c(OC)c2)nc2c1CC[C@H]2c1ccc(F)cc1		elderly humans, both sexes, plasma	oral, 900 mg single dose	5 h
COC(=O)c1ccc2c(c1)NC(=O)/C2=C(\Nc1ccc(N(C)C(=O)CN2CCN(C)CC2)cc1)c1ccccc1		healthy human controls matched to Child-Pugh A, plasma	oral, 100 mg single dose, median	4 h
COc1ccnc(C[S+]([O-])c2nc3ccc(OC(F)F)cc3[nH]2)c1OC (stereo not shown)	HPLC	human CYP2C19 rapid metabolizers, plasma	oral, 40 mg/day, day 5, esomeprazole	1.5 h
C[C@H]1C[C@@H]2[C@H]([C@@H](O)C[C@@]3(C)[C@H]2CC[C@]3(O)C(=O)CO)[C@@]2(C)C=CC(=O)C=C12	item: free compound	human, plasma	oral, once daily, 32 mg, day 1, median	2 h
CC(C)[C@H](N)C(=O)NCCCS(=O)(=O)O		healthy human, both sexes, plasma	oral, 100 mg capsule, median	0.51 h
CN1CCc2nc(C(=O)N[C@@H]3C[C@@H](C(=O)N(C)C)CC[C@@H]3NC(=O)C(=O)Nc3ccc(Cl)cn3)sc2C1		human, plasma	fed, together with: dronedarone	1.98 h
Oc1ncnc2[nH]ncc12		human male, plasma	oral, 300 mg ALLO once daily, steady state fed	1.5 h
N[C@]1(C(=O)O)[C@H]2[C@@H](C[C@@H]1F)[C@@H]2C(=O)O		human, both sexes, fed, plasma	oral, 5 mg, day 14, multiple ascending dose	2 h
O=C(CCCCCCC(=O)Nc1ccccc1)NO		human patients, serum	oral, 1700 mg once daily	1.8 h
CC(C)c1nc(N(C)S(C)(=O)=O)nc(-c2ccc(F)cc2)c1/C=C/[C@@H](O)C[C@@H](O)CC(=O)O		human, plasma	oral, median, together with: darolutamide	4.07 h
O=C(Cc1cccc(OC(F)(F)F)c1)Nc1ccc(CCCCc2nnc(NC(=O)Cc3ccccn3)s2)nn1		human patients, plasma	oral, 100 mg three times daily fasted, cycle 1 day 15 steady state	1.54 h
C=CC(=O)N1CCC([C@@H]2CCNc3c(C(N)=O)c(-c4ccc(Oc5ccccc5)cc4)nn32)CC1		human	oral, 160 mg single dose, median	1.5 h
COc1cc(Nc2ncc3c(n2)-c2ccc(Cl)cc2C(c2c(F)cccc2OC)=NC3)ccc1C(=O)O		human, phase I	oral, 40 mg twice daily, together with: combination with other drug	1.5 ± 1 h
Cc1[nH]c(/C=C2\C(=O)Nc3ccccc32)c(C)c1CCC(=O)O		human patients	oral, 400 mg/m^2 twice daily, after meal, dose 55	2.25 ± 0.5 h
CCOc1cc([C@@H](CS(C)(=O)=O)N2C(=O)c3cccc(NC(C)=O)c3C2=O)ccc1O[C@@H]1O[C@H](C(=O)O)[C@@H](O)[C@H](O)[C@H]1O		healthy human controls, plasma	oral, 30 mg apremilast, matched to severe impairment	4 h
CN(CCOc1ccc(CC2SC(=O)NC2=O)cc1)c1ccccn1 (stereo not shown)		human, both sexes, plasma	oral, 4 mg, day 3, median, together with: SCY-078 750 mg	1 h
Cc1cc(C)c2c(c1)[C@@H](N(Cc1cc(C(F)(F)F)cc(C(F)(F)F)c1)c1nnn(C)n1)CCCN2C[C@H]1CC[C@H](C(=O)O)CC1	LC-MS/MS	human, plasma	oral, 300 mg once daily, steady state	4 h
CN(Cc1cnc2nc(N)nc(N)c2n1)c1ccc(C(=O)N[C@@H](CCC(=O)O)C(=O)O)cc1		human, both sexes, plasma	oral, 15 mg, day 1, alone, median	1.27 h
